Results from different studies.
Lines come from different studies, so protocols differ. ± gives the spread as reported.
ERBB4: Receptor tyrosine-protein kinase erbB-4 (ERBB4, Homo sapiens, UniProt Q15303)
UniProt Q15303, sequence (whole entry, looked up): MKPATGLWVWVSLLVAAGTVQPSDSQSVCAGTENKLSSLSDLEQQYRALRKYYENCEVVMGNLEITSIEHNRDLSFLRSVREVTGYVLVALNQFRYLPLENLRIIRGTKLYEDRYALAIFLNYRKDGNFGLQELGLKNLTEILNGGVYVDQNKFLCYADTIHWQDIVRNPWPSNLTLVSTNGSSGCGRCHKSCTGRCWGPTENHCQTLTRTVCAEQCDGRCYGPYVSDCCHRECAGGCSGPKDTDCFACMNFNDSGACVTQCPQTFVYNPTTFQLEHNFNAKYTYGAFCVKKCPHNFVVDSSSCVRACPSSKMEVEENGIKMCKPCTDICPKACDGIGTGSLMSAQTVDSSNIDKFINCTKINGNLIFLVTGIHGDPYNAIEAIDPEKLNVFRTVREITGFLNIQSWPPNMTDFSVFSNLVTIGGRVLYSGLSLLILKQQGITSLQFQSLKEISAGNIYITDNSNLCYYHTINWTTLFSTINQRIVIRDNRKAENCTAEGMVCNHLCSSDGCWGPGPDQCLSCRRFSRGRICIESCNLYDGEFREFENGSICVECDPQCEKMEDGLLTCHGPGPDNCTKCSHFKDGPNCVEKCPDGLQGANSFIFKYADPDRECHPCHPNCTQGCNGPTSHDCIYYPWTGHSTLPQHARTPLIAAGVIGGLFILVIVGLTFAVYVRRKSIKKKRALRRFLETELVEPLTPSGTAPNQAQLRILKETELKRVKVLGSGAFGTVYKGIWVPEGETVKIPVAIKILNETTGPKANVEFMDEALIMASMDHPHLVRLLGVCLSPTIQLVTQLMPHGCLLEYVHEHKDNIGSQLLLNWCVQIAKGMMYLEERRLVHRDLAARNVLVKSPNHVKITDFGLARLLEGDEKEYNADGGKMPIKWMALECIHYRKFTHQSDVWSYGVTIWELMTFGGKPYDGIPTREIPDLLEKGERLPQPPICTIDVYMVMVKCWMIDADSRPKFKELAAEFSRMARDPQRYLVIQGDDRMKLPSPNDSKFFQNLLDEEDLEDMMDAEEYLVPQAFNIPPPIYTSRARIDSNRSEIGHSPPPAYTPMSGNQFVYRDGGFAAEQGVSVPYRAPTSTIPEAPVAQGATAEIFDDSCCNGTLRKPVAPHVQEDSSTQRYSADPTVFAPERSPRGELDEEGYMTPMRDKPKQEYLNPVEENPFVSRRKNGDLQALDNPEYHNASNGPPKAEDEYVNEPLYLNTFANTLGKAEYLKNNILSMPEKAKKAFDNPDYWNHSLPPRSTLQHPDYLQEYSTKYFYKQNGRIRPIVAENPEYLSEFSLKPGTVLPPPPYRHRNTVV
UniProt P25103, sequence (whole entry, looked up): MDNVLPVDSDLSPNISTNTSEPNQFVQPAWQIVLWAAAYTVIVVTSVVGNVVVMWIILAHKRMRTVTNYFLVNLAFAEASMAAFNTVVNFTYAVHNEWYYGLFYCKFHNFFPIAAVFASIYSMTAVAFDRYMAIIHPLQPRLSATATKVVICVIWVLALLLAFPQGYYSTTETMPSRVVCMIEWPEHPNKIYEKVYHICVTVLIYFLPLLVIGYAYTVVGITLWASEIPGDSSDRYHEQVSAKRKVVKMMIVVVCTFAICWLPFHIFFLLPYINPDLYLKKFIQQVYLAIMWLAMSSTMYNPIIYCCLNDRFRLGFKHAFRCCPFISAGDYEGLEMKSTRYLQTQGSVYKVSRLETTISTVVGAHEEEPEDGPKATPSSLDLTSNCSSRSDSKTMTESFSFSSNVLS
UniProt P28335, sequence (whole entry, looked up): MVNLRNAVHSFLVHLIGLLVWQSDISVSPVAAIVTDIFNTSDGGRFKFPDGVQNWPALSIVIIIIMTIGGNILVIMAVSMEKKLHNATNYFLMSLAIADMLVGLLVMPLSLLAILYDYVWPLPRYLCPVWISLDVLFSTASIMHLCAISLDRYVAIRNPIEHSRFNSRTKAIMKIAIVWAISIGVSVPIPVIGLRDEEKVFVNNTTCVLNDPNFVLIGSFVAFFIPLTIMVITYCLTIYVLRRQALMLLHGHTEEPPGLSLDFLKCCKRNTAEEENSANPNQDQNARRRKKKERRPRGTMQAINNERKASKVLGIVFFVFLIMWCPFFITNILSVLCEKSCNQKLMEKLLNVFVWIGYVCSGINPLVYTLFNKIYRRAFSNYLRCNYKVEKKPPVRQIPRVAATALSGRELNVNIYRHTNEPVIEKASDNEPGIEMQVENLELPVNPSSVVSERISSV
UniProt O15075, sequence (whole entry, looked up): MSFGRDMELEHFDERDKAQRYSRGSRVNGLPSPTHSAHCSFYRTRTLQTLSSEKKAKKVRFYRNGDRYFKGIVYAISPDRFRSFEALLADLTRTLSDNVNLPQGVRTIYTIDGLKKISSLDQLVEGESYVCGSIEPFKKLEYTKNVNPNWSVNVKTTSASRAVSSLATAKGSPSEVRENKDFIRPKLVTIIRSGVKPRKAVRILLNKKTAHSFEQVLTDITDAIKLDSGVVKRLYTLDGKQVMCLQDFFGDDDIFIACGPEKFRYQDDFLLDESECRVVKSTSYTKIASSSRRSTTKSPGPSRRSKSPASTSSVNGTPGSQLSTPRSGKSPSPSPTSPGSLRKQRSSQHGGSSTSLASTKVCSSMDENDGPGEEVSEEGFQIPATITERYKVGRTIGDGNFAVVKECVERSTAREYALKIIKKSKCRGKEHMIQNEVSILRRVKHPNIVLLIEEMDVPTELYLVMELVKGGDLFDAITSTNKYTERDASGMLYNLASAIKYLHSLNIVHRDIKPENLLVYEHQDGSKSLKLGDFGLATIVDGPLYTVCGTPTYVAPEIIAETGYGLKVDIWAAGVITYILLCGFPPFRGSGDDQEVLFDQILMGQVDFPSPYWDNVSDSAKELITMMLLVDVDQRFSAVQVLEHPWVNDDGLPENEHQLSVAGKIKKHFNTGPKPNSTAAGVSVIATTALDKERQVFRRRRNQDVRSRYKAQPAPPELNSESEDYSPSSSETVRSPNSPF
UniProt Q8NET8, sequence (whole entry, unmodified, looked up): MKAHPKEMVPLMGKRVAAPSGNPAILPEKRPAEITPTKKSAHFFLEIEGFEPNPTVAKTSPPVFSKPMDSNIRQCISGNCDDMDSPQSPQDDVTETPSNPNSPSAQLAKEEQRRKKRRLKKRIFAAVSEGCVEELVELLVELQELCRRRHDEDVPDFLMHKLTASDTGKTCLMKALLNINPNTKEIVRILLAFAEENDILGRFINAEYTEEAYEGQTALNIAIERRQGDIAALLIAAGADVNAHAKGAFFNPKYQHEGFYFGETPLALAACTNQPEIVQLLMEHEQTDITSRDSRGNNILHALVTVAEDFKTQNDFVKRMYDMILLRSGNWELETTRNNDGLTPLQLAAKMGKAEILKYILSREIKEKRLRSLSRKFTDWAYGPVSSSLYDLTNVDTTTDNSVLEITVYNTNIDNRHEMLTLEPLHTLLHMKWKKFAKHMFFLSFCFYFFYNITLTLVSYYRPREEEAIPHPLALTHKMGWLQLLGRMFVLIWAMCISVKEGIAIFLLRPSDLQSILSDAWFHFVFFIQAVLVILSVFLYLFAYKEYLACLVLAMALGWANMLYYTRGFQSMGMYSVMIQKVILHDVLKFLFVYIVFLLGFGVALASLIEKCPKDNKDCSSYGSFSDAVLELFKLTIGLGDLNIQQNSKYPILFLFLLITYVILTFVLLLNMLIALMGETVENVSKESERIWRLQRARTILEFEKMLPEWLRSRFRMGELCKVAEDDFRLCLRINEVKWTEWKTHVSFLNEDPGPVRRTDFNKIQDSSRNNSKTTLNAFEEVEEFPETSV
UniProt P42785, sequence (whole entry, looked up): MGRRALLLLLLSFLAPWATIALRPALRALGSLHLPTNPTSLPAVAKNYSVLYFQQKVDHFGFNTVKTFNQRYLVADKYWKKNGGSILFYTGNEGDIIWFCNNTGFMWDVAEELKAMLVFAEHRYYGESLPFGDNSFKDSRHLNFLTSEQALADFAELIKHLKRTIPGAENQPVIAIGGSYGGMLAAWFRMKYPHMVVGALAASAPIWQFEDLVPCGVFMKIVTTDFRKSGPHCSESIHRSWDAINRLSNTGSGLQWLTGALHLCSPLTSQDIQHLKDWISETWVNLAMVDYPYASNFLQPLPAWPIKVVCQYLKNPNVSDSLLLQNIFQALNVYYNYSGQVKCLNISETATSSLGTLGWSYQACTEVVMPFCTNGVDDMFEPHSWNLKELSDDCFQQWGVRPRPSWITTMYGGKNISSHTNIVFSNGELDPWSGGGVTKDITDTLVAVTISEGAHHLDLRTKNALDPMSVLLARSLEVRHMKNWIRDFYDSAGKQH
UniProt P47775, sequence (whole entry, looked up): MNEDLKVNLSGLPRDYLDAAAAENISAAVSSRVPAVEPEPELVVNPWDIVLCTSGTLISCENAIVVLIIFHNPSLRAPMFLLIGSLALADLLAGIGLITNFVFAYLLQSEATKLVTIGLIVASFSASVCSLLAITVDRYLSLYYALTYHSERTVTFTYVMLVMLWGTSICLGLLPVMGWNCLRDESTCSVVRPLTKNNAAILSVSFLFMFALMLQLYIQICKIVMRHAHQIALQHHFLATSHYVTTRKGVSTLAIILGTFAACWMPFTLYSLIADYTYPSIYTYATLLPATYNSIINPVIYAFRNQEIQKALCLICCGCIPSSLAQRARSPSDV

Structure (SMILES)	tested on	test	system	setting	how to read	endpoint	value
CN[C@@]1(c2ccccc2Cl)CCCCC1=O	P2X receptor	radioligand binding, agonist, radioligand displacement		30 µM		inhibition	-8%
[2H]c1c([2H])c([C@]2([2H])CCCN2C(=O)C(C)(C)Oc2ccc3cn[nH]c3c2)c([2H])c([2H])c1C([2H])([2H])[2H]	Serine/threonine-protein kinase DCLK1 (DCLK1, Homo sapiens, UniProt O15075)	KINOMEscan		1 µM	reference: DMSO control	remaining binding	84%
CC[C@H](C)[C@H](NC(=O)CNC(=O)[C@@H](N)CCCCN)C(=O)N[C@@H](CC(C)C)C(=O)N[C@@H](CCCCN)C(=O)N[C@@H](CCCNC(=N)N)C(=O)N[C@@H](CCC(=O)O)C(=O)N[C@@H](CCCCN)C(=O)N[C@@H](CCCNC(=N)N)C(=O)N[C@@H](CC(C)C)C(=O)N[C@@H](CCCNC(=N)N)C(=O)N[C@@H](CCCNC(=N)N)C(=O)N[C@@H](CCCCN)C(=O)N[C@@H](CC(N)=O)C(=O)N[C@H](C(=O)N[C@@H](Cc1c[nH]cn1)C(=O)N[C@@H](Cc1c[nH]c2ccccc12)C(=O)N1CCC[C@H]1C(=O)N[C@@H](CCC(=O)O)C(=O)N[C@@H](CCC(=O)O)C(=O)NCC(=O)N[C@@H](CCCCN)C(=O)N[C@@H](CC(C)C)C(=O)N[C@@H](CCCNC(=N)N)C(=O)N[C@@H](CCC(=O)O)C(=O)N[C@@H](Cc1ccc(O)cc1)C(=O)N[C@@H](Cc1ccccc1)C(=O)N[C@@H](Cc1ccc(O)cc1)C(=O)N[C@@H](Cc1ccccc1)C(=O)N[C@@H](CCC(=O)O)C(=O)N[C@@H](CC(C)C)C(=O)N[C@@H](CC(=O)O)C(=O)N[C@@H](CCC(=O)O)C(=O)N[C@@H](C)C(=O)N[C@@H](CCC(=O)O)C(=O)N[C@@H](CCCNC(=N)N)C(=O)N[C@H](C(=O)N[C@@H](CC(N)=O)C(=O)N[C@H](C(=O)O)C(C)C)C(C)C)C(C)C	HeLa and HEK-293T cells	phosphatase bead binding, competitive inhibitor, PIB pulldown iBAQ LC-MS/MS, refers to: PPP4C		concentration not given	reference: untreated control	log2 fold change	0.51
COc1cc(CCNC(C)c2ccccc2O)c(OC)cc1C#N (single isomer, unassigned; (+))	5-hydroxytryptamine receptor 2C (HTR2C, Homo sapiens, UniProt P28335)	calcium flux, agonist			reference: 5-HT	Emax	43%
COc1ccc(N2C(=O)N(c3c(C)cccc3Cl)Cc3cnc(Nc4ccc(C5CCN(C)CC5)cc4OC)nc32)nc1	ERBB4	kinase activity		0.5 µM		inhibition	99%
O=C(c1ccc(Cl)cc1)N1CCN2C(=O)N(OC(=O)N3CCOc4ccccc43)C(=O)C2C1 (stereo not shown)	Lysosomal Pro-X carboxypeptidase (PRCP, Homo sapiens, UniProt P42785)	MS-based ABPP	SW-620 conditioned medium	10 µM, 1 h, 37 °C	reference: treated over control	mean protein ratio	1.16
Oc1ccc2c3c1O[C@H]1[C@@H](O)CC[C@@]4(O)[C@@H](C2)N(CC2CCC2)CC[C@]314	G-protein coupled receptor 12 (GPR12, Homo sapiens, UniProt P47775)	β-arrestin recruitment, TANGO luminescence, refers to: GPR12		concentration not given	reference: basal luminescence	log2 fold change	-0.307
C[C@H]1CN(c2n[nH]c3nc(N[C@H]4CC[C@H](NS(=O)(=O)CCC(F)(F)F)CC4)ncc23)CCO1	ERBB4	inhibitor, Kinobeads competition profiling		20 µM	reference: vehicle	relative abundance	1.08
CCCc1cc(O)c2c(c1)OC(C)(C)[C@@H]1CCC(C)=C[C@@H]21	Transient receptor potential cation channel subfamily V member 3 (TRPV3, Homo sapiens, UniProt Q8NET8, R696K)	calcium uptake, agonist	HEK293S	mutant R696K, site 3		Hill coefficient	2.41 ± 0.31
CC[C@H](C)[C@H](NC(=O)CNC(=O)[C@@H](N)CCCCN)C(=O)N[C@@H](CC(C)C)C(=O)N[C@@H](CCCCN)C(=O)N[C@@H](CCCNC(=N)N)C(=O)N[C@@H](CCC(=O)O)C(=O)N[C@@H](CCCCN)C(=O)N[C@@H](CCCNC(=N)N)C(=O)N[C@@H](CC(C)C)C(=O)N[C@@H](CCCNC(=N)N)C(=O)N[C@@H](CCCNC(=N)N)C(=O)N[C@@H](CCCCN)C(=O)N[C@@H](CC(N)=O)C(=O)N[C@H](C(=O)N[C@@H](Cc1c[nH]cn1)C(=O)N[C@@H](Cc1c[nH]c2ccccc12)C(=O)N1CCC[C@H]1C(=O)N[C@@H](CCC(=O)O)C(=O)N[C@@H](CCC(=O)O)C(=O)NCC(=O)N[C@@H](CCCCN)C(=O)N[C@@H](CC(C)C)C(=O)N[C@@H](CCCNC(=N)N)C(=O)N[C@@H](CCC(=O)O)C(=O)N[C@@H](Cc1ccccc1)C(=O)N[C@@H](Cc1ccccc1)C(=O)N[C@@H](Cc1ccccc1)C(=O)N[C@@H](Cc1ccccc1)C(=O)N[C@@H](CCC(=O)O)C(=O)N[C@@H](CC(C)C)C(=O)N[C@@H](CC(=O)O)C(=O)N[C@@H](CCC(=O)O)C(=O)N[C@@H](C)C(=O)N[C@@H](CCC(=O)O)C(=O)N[C@@H](CCCNC(=N)N)C(=O)N[C@H](C(=O)N[C@@H](CC(N)=O)C(=O)N[C@H](C(=O)O)C(C)C)C(C)C)C(C)C	HeLa and HEK-293T cells	phosphatase bead binding, competitive inhibitor, PIB pulldown iBAQ LC-MS/MS, refers to: PPP6C		concentration not given	reference: untreated control	log2 fold change	-0.67
Cc1[nH]c2ccccc2c1-c1csc(-c2c[nH]c3ccccc23)n1	differentiated W12E	CUT&RUN-qPCR		concentration not given	reference: untreated	BARD1 binding at HPV ori	decreased
CN1CCN(c2cc(-c3ccncc3)c(-c3ccc4ccccc4c3)nn2)CC1	Substance-P receptor (TACR1, Homo sapiens, UniProt P25103)	agonist, FLIPR		12.5 µM		activation	-4%
O=S(=O)(F)Oc1cc(C(F)(F)F)cc(C(F)(F)F)c1		reaction with N-acetyl-lysine, HPLC-MS		pH 10.2, added: N-α-acetyl-lysine		pseudo-first-order rate constant	1.2 h⁻¹

Excerpt of the above:
Structure (SMILES)	tested on	test	system	setting	how to read	endpoint	value
O=C(c1ccc(Cl)cc1)N1CCN2C(=O)N(OC(=O)N3CCOc4ccccc43)C(=O)C2C1 (stereo not shown)	Lysosomal Pro-X carboxypeptidase (PRCP, Homo sapiens, UniProt P42785)	MS-based ABPP	SW-620 conditioned medium	10 µM, 1 h, 37 °C	reference: treated over control	mean protein ratio	1.16
